Measured values pooled from the literature.
“And” joins repeats or separate records; there may be more than shown. ± gives the spread as reported.
Cell line: PC-3

NNc1nc(-c2ccc(Cl)cc2)c2c(NC(=O)c3ccccc3)nnc-2[nH]1
cell growth (SRB; 10 µM, NCI60 single-dose screen, prostate cancer; baseline: untreated): 91.7%

CC(=O)O[C@H]1C(=O)[C@@]2(C)[C@H]([C@H](OC(=O)c3ccccc3)[C@]3(O)C[C@H](OC(=O)[C@H](O)[C@@H](NC(=O)c4ccccc4)c4ccccc4)C(C)=C1C3(C)C)[C@]1(OC(C)=O)CO[C@@H]1C[C@@H]2O
TGI (sulforhodamine B; prostate cancer; NCI60 screen): 0.63 µM

COc1cccc2c1C(=O)c1c(O)c3c(c(O)c1C2=O)C[C@@](O)(C(=O)CO)C[C@@H]3O[C@H]1C[C@H](N)[C@H](O)[C@H](C)O1
selectivity index (MTT; baseline: BJ1 over PC-3): 0.8

O=C(Nc1nnc2[nH]c(=S)[nH]c(-c3ccc(Cl)cc3)c1-2)c1ccccc1
cell growth (SRB; 10 µM, NCI60 single-dose screen, prostate cancer; baseline: untreated): 92.8%

Cc1c(Cc2ccccc2)c(=O)oc2c(C)c(OCC(=O)NN=Cc3ccc(Cl)cc3)ccc12
IC50 (cell viability, MTT): 57.2 µg/mL

O=C1NC(c2ccccc2)(c2ccccc2)C(=O)N1Cc1cn(-c2c3ccccc3nc3ccccc23)nn1
growth percentage (NCI60 single-dose screen; 10 µM): 78%

CCOc1nc(-c2cccc(O)c2)cc(-c2cc3cc(Cl)ccc3nc2N2CCOCC2)c1C#N
selectivity ratio (MTT; baseline: WI-38 EC50 over PC-3 IC50): 0.167

Cc1nc(NC(=O)N2CCC[C@H]2C(N)=O)sc1-c1ccnc(C(C)(C)C(F)(F)F)c1
protein level (immunoblot, refers to: AURKB; 1 µM, 24 h): decreased

O=P1(C2CCCCC2)CCCCC1
IL-6 level (ELISA; IC50, 72 h): 1.8 ± 0.66 pg/mL

CCCN1CCN(c2ccc3[nH]c(-c4ccc5[nH]c(-c6cc(OC)c(OC)c(OC)c6)nc5c4)nc3c2)CC1
growth percent (SRB; 10 µM, 48 h): 70.7%

CCCC(CCC)C(=O)OCc1cn(-c2c3ccccc3nc3ccccc23)nn1
growth percentage (NCI60 single-dose screen; 10 µM): 91.6%

CCC(=O)N1CCC(COCC(=O)N2CCN(c3nc(-c4cnc(N)nc4C(F)F)nc(N4CCOC[C@@H]4C)n3)CC2)CC1
GR50 (resazurin growth rate inhibition; 72 h): 1580 nM

NC1(C(=O)N[C@@H](CCO)c2ccc(Cl)cc2)CCN(c2ncnc3[nH]ccc23)CC1
protein level (immunoblot, refers to: PDCD4; 1 µM, 24 h): increased

C#C[C@@]1(O)[C@@H](CO)O[C@@H](n2cc(Cl)c3c(N)ncnc32)[C@@H]1O
TGI (SRB; NCI-60 screen): 4.54 µM and 3.52 µM

CCNC(=S)NNC(=O)COc1ccc2c(C)c(CC)c(=O)oc2c1C
IC50 (cell viability, MTT): 133 µg/mL

CCCCCCCCCc1ccc(C(=O)Nc2cc(C)ccc2C(=O)OC)cc1
TCTP Ser46 phosphorylation (immunoblot, refers to: phospho-TCTP Ser46; concentration not given, 23 h): no effect

O=c1ccn(Cc2cn(-c3c4ccccc4nc4ccccc34)nn2)c(=O)[nH]1
growth percentage (NCI60 single-dose screen; 10 µM): 97.5%

CCCN1CCN(c2ccc3[nH]c(-c4ccc5[nH]c(-c6ccc(OCC)c(OCC)c6)nc5c4)nc3c2)CC1
growth percent (SRB; 10 µM, 48 h): -40.6%

Nc1n[nH]c2nc(-c3cccc(O)c3)cc(-c3cc4cc(Cl)ccc4nc3N3CCOCC3)c12
selectivity ratio (MTT; baseline: WI-38 EC50 over PC-3 IC50): 0.801

COc1cccc2c1C(=O)c1c(O)c3c(c(O)c1C2=O)C[C@@](O)(C(=O)CO)C[C@@H]3O[C@H]1C[C@H](N)[C@H](O)[C@H](C)O1
selectivity index (MTT; 72 h; baseline: IC50 HaCaT over IC50 PC-3): 1

Cc1cc(C)n(-c2nc(-c3ccc(Cl)cc3)c3c(NC(=O)c4ccccc4)nnc-3[nH]2)n1
cell growth (SRB; 10 µM, NCI60 single-dose screen, prostate cancer; baseline: untreated): 93.8%

CCCCN1CCN(c2ccc3[nH]c(-c4ccc5[nH]c(-c6ccc(OCC)c(OCC)c6)nc5c4)nc3c2)CC1
growth percent (SRB; 10 µM, 48 h): -49.1%

C=CCOc1ccc2c(C)c(CC)c(=O)oc2c1C
IC50 (cell viability, MTT): 221 µg/mL

NCc1cc2c(-c3ccccc3)n[nH]c2c(Nc2ccccc2)n1
S-phase cells (flow cytometry; IC50, 24 h): 17%

CCCN1CCN(c2ccc3nc(-c4ccc5nc(-c6cc(OC)ccc6OC)[nH]c5c4)[nH]c3c2)CC1
growth percent (SRB; 10 µM, 48 h): 103%

CS(=O)(=O)N1CCN(Cc2cc3nc(-c4cccc5[nH]ncc45)nc(N4CCOCC4)c3s2)CC1
protein level (immunoblot, refers to: PDCD4; 1 µM, 24 h): increased

CCCCN1CCN(c2ccc3[nH]c(-c4ccc5[nH]c(-c6cc(OC)c(OC)c(OC)c6)nc5c4)nc3c2)CC1
growth percent (SRB; 10 µM, 48 h): 57.4%

C=CC(=O)N1CCC(COCC(=O)N2CCN(c3nc(-c4cnc(N)nc4C(F)F)nc(N4CCOC[C@@H]4C)n3)CC2)CC1
GR50 (resazurin growth rate inhibition; 72 h): 774 nM

Cc1cc(=O)[nH]n1-c1nc(-c2ccc(Cl)cc2)c2c(NC(=O)c3ccccc3)nnc-2[nH]1
cell growth (SRB; 10 µM, NCI60 single-dose screen, prostate cancer; baseline: untreated): 104%

Cc1ncsc1-c1ccc(CNC(=O)[C@@H]2C[C@@H](O)CN2C(=O)[C@@H](NC(=O)CCCCCCCCCC(=O)N2CCN(CC[C@H](NC(=O)C3(N)CCN(c4ncnc5[nH]ccc45)CC3)c3ccc(Cl)cc3)CC2)C(C)(C)C)cc1
protein level (immunoblot, refers to: PDCD4; 1 µM, 24 h): increased

C=CCNC(=S)NNC(=O)COc1ccc2c(C)c(CC)c(=O)oc2c1C
IC50 (cell viability, MTT): 96 µg/mL

CCn1cc(-c2cc(Cn3ccnc3)cc3c2CCN([C@H](c2cc(OC)ccn2)C2CC2)C3=O)c(C(F)(F)F)n1
EC50 (cell growth, inhibitor; 120 h): > 30 µM

Cc1cc(=O)[nH]c(=O)n1Cc1cn(-c2c3ccccc3nc3ccccc23)nn1
growth percentage (NCI60 single-dose screen; 10 µM): 97.3%

O=C(Nc1nnc2n3c(nc(-c4ccc(Cl)cc4)c1-2)SCC3=O)c1ccccc1
cell growth (SRB; 10 µM, NCI60 single-dose screen, prostate cancer; baseline: untreated): 101%

CC(C)c1ccc(/C=C2\N=C(SCC(=O)O)N(c3ccccc3)C2=O)cc1
selectivity index (MTT; baseline: BJ1 over PC-3): 1.4

Nc1n[nH]c2nc(-c3cccc(O)c3)cc(-c3cc4ccccc4nc3N3CCOCC3)c12
selectivity ratio (MTT; baseline: WI-38 EC50 over PC-3 IC50): 5.21

Cn1cncc1C1=CN(c2ncnc3[nH]cnc23)CCS1
TGI (prostate cancer): 166 µM

CCN(CC)c1ccc(C=NNC(=O)CSc2nc3ccccc3c(=O)n2Cc2ccc(S(N)(=O)=O)cc2)c(O)c1
TGI (NCI five-dose screen): > 100 µM

Cc1nc(NC(=O)N2CCC[C@H]2C(N)=O)sc1-c1ccnc(C(C)(C)C(F)(F)F)c1
IC50 (western blot, refers to: phospho-PKB/Akt Ser473; 2 h): 1.03 µM

CCc1c(C)c2ccc(OCc3nnc(S)n3N)c(C)c2oc1=O
IC50 (cell viability, MTT): 40.6 µg/mL

CCCCN1CCN(c2ccc3[nH]c(-c4ccc5[nH]c(-c6ccc(C(F)(F)F)cc6)nc5c4)nc3c2)CC1
growth percent (SRB; 10 µM, 48 h): -77%

A few entries again:
Cc1nc(NC(=O)N2CCC[C@H]2C(N)=O)sc1-c1ccnc(C(C)(C)C(F)(F)F)c1
protein level (immunoblot, refers to: AURKB; 1 µM, 24 h): decreased

COc1cccc2c1C(=O)c1c(O)c3c(c(O)c1C2=O)C[C@@](O)(C(=O)CO)C[C@@H]3O[C@H]1C[C@H](N)[C@H](O)[C@H](C)O1
selectivity index (MTT; baseline: BJ1 over PC-3): 0.8

CCNC(=S)NNC(=O)COc1ccc2c(C)c(CC)c(=O)oc2c1C
IC50 (cell viability, MTT): 133 µg/mL

C=CCNC(=S)NNC(=O)COc1ccc2c(C)c(CC)c(=O)oc2c1C
IC50 (cell viability, MTT): 96 µg/mL

CCCN1CCN(c2ccc3[nH]c(-c4ccc5[nH]c(-c6cc(OC)c(OC)c(OC)c6)nc5c4)nc3c2)CC1
growth percent (SRB; 10 µM, 48 h): 70.7%
